Published values collected from several papers.
Compare with care: the assays were run in different laboratories. Several values in a cell are separate wells, animals, samples, runs or records. Numbers after ± are the reported error.
Gria2/Glutamate receptor 3: Gria2/Glutamate receptor 3 (Rattus norvegicus, UniProt P19491+P19492)
Chain of UniProt P19492 (whole entry, looked up): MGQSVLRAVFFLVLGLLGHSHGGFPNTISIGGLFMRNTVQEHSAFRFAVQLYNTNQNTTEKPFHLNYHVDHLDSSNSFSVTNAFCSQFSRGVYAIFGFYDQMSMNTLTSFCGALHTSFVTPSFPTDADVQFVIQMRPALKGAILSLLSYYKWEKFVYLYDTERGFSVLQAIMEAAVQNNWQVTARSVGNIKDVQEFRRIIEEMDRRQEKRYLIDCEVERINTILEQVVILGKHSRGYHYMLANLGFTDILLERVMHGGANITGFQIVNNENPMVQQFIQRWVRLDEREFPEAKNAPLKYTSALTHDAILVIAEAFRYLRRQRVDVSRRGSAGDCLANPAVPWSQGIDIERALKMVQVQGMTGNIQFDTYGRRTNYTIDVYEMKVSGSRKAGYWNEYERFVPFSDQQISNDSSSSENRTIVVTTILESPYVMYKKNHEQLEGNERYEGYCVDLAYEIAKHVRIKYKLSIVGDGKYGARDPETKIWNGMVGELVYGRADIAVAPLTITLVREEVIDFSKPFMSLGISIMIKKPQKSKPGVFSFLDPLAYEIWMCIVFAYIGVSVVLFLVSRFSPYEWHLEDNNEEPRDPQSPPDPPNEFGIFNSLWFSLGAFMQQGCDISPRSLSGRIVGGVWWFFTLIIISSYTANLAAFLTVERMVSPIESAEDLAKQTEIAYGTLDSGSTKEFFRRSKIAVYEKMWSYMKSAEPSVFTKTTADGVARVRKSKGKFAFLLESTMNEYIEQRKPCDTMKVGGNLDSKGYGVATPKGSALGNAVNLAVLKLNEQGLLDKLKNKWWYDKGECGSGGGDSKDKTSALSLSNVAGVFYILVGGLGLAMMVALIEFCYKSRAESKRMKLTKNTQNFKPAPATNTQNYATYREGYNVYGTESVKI
Chain of UniProt P19491 (whole entry, looked up): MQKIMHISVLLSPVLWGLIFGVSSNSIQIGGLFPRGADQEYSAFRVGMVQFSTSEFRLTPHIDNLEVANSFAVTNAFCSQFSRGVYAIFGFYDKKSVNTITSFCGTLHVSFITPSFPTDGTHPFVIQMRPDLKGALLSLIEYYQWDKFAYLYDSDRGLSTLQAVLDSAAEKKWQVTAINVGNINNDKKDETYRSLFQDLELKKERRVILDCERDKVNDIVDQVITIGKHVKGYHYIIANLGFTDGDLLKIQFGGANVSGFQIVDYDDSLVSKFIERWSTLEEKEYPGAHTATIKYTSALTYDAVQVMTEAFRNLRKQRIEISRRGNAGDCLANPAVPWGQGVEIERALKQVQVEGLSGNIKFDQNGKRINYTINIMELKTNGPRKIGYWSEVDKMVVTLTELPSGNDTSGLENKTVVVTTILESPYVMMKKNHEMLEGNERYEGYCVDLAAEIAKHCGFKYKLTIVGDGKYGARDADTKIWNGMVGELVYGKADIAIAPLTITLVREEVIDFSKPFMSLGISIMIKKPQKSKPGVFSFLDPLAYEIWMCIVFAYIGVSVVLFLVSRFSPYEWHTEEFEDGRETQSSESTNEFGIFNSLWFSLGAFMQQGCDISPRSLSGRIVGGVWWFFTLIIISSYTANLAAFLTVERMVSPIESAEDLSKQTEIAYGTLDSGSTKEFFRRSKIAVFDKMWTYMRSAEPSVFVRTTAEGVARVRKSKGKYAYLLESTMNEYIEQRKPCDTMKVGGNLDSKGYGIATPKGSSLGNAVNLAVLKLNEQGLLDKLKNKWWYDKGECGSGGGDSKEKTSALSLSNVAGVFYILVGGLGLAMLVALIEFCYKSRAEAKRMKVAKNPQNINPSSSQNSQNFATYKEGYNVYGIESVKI
PPO3: PPO3 (Agaricus bisporus, UniProt C7FF04)
Chain of UniProt C7FF04 (whole entry, looked up): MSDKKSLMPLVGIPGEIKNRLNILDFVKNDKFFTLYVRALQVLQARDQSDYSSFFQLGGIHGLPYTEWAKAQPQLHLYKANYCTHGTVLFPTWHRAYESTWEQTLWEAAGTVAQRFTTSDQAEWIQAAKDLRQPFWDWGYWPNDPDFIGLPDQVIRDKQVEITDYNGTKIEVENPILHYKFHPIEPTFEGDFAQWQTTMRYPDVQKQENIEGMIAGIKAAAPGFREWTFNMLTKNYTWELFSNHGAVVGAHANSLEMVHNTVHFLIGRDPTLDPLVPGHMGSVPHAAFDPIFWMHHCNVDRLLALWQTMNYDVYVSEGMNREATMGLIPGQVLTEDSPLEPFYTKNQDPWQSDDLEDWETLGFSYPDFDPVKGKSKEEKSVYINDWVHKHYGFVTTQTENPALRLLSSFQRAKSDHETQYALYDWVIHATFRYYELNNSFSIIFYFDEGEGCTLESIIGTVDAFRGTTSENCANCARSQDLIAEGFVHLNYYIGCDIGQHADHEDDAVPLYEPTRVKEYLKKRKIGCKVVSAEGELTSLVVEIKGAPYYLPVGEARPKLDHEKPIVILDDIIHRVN
MAPK8: Mitogen-activated protein kinase 8 (MAPK8, Homo sapiens, UniProt P45983)
Chain of UniProt P45983 (whole entry, looked up): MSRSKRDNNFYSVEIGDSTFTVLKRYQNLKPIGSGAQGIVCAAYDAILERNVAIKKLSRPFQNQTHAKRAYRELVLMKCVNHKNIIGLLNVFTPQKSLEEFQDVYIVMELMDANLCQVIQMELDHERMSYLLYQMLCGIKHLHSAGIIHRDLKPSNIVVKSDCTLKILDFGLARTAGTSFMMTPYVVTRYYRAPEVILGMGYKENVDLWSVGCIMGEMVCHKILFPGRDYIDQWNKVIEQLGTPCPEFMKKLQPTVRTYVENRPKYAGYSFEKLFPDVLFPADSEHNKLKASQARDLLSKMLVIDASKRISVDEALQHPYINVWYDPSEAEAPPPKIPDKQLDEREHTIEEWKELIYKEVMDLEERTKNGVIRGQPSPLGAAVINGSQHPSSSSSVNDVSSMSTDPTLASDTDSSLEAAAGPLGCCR
ZWINT: Outer kinetochore KNL1 complex subunit ZWINT (ZWINT, Homo sapiens, UniProt O95229)
Chain of UniProt O95229 (whole entry, looked up): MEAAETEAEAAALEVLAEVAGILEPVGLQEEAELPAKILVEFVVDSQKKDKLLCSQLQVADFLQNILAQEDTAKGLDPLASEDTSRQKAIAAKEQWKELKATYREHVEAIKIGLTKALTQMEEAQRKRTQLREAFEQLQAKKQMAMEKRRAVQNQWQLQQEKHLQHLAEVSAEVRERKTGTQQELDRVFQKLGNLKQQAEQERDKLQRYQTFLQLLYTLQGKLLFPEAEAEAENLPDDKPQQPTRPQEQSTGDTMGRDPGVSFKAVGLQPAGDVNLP
USP14: Ubiquitin carboxyl-terminal hydrolase 14 (USP14, Homo sapiens, UniProt P54578)
Chain of UniProt Q9H4M9 (whole entry, looked up): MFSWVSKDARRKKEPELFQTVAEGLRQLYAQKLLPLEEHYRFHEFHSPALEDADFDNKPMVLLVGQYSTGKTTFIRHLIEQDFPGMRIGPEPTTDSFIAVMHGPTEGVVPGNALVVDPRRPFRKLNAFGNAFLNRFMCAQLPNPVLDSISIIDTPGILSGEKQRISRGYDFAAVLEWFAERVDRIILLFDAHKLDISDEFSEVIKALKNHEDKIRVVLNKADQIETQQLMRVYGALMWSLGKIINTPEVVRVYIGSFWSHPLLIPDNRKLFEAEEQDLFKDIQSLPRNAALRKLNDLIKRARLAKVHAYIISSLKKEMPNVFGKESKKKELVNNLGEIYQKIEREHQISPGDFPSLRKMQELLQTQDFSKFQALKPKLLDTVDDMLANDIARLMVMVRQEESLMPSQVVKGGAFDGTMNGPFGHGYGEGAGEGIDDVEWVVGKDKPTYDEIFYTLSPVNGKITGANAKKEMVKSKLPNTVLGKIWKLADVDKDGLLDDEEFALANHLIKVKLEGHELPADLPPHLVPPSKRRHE
Chain of UniProt P54578 (whole entry, looked up): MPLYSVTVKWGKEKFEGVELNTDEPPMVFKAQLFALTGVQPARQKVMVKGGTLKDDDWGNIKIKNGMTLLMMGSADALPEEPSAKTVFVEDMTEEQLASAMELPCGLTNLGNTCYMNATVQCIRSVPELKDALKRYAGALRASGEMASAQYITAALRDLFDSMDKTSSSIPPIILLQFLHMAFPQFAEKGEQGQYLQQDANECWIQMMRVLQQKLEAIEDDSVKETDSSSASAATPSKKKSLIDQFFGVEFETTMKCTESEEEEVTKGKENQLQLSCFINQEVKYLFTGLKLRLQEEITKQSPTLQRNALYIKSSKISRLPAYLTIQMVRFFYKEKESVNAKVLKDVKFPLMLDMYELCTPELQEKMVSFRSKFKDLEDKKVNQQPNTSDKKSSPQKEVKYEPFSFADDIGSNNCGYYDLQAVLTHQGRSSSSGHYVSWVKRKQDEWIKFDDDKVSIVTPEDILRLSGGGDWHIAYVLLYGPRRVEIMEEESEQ
Chain of UniProt Q15435 (whole entry, looked up): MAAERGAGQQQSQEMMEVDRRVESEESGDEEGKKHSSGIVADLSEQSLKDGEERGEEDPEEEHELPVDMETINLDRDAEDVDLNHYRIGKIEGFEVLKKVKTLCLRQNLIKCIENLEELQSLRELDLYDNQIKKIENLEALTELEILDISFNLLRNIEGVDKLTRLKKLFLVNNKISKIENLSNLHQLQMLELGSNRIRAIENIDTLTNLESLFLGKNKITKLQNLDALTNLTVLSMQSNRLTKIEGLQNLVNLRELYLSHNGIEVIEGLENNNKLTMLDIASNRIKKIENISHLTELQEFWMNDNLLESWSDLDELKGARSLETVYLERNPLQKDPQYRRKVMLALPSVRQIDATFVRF
Chain of UniProt Q92847 (whole entry, looked up): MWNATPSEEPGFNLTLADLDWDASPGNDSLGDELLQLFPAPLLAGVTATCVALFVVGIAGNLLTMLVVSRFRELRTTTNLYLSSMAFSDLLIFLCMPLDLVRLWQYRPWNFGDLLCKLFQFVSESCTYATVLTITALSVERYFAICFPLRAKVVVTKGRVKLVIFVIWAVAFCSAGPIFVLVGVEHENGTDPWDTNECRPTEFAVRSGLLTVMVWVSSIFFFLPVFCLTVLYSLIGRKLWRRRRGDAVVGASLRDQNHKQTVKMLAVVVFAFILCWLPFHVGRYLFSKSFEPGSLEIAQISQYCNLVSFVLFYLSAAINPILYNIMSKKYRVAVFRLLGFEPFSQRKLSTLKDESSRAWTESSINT

COC(=O)Cc1cc2c(cc1C(=O)c1ccccc1)OCO2
desensitization time constant (Gria2/Glutamate receptor 3; glutamate-evoked current, whole-cell patch clamp; HEK-293T; concentration not given, weighted tau, 500 ms pulse, added: glutamate): 2.6 ± 0.2 ms

Cc1ccc(-c2cc(CN3c4ccccc4C=Cc4ccccc43)on2)cc1
apparent Vmax (PPO3; enzyme activity, inhibitor; concentration not given): 32.9 µmol/min

COc1ccc(C(=O)c2c(C(=O)NCCCN(C)C)oc3ccc(Cl)cc3c2=O)cc1OC
Emax (net BRET) (Growth hormone secretagogue receptor type 1 (GHSR, Homo sapiens, UniProt Q92847); endosomal trafficking, agonist, bystander BRET 2xFYVE-Venus; 90 min, unit not given; baseline: baseline): 0.028 ± 0.007

COc1ccc(C(OCCNCc2cc(F)c(O)c(F)c2)(c2ccc(OC)cc2)c2ccc(OC)cc2)cc1
remaining signal (Sodium- and chloride-dependent glycine transporter 1 (SLC6A9, Homo sapiens, UniProt P48067); cell-free assay; 1 µM): 96.7%

COC(=O)[C@@]1(C)C=C(C(=O)Nc2cccc(C(=O)Nc3ccc(Nc4nccc(-c5cccnc5)n4)c(C)c3)c2)C(=O)CC1
remaining activity (MAPK8; enzyme activity, inhibitor; 0.0007527 µM, 18 h, unit not given, added: GSH 10 mM pre-incubation; baseline: vehicle): 0.982

O=C1c2sc(-c3ccc(N4CCC(CO)CC4)nc3F)nc2CCN1c1cccnc1
specific binding (TAR DNA-binding protein 43, aggregated (TARDBP, Homo sapiens, UniProt Q13148); radioligand binding; control brain sarkosyl-insoluble extract; 3.53 nM): -0.012 nM

COC(=O)CN1CCCc2cc3cc(C(=O)NC(Cc4cccc(Cl)c4)C(=O)NCC=CS(=O)(=O)c4ccccc4)c(=O)oc3cc21 (centres unmarked)
kinact/Ki (Cathepsin S (CTSS, Homo sapiens, UniProt P25774); inhibitor; added: Z-Phe-Arg-AMC): 671 M⁻¹ s⁻¹

O=C(c1cccc(-c2ccc3ncnc(Nc4ccc(OCc5cccc(F)c5)c(Cl)c4)c3c2)c1)N1CCCCC1
EC50 (Leishmania major; intracellular amastigote growth, luciferase; RAW264.7 macrophages): > 3 µM

CCCCCCCCCCCCC/C=C/C=O
isoTOP-ABPP competition ratio (ZWINT; competitive isoTOP-ABPP, measured: ZWINT cysteine peptide; Ramos soluble proteome; 100 µM, added: iodoacetamide probe; baseline: DMSO over compound-treated, higher = stronger cysteine blockade): 1.1

O=C1NC(=Cc2ccc(O)cc2)C(=O)c2ccccc21
inhibition (USP14; enzyme activity, inhibitor; 17 µM): 96%

CC(=O)N[C@@H](Cc1ccc(O)cc1)C(=O)N[C@@H](CC(N)=O)C(=O)N1CCC[C@H]1C(=O)N[C@@H](Cc1ccccc1)C(=O)N[C@@H](CCC(=O)O)C(=O)N[C@@H](CCC(=O)O)C(=O)NCC(=O)NCC(N)=O
binding stoichiometry (EH domain-containing protein 1, EH domain (Homo sapiens, UniProt Q9H4M9); peptide binding, ITC; concentration not given, 15 mM NaCl): 1.04 and 1.08 and 1.06 and 1.13

C=C1CC[C@H](OCCCNC(=O)CCOCCOCCOCCOCCOCCOCCOCCOCCOCCOCCOCCOCCOCCOCCOCCOCCOCCOCCOCCOCCOCCOCCOCCOCCOCCOCCOCCOCCOCCOCCOCCOCCOCCOCCOCCOCCNC(=O)CCN2C(=O)CC(SC[C@H](NC(=O)[C@H](Cc3ccccc3)NC(=O)[C@H](CC(N)=O)NC(=O)[C@H](Cc3c[nH]cn3)NC(=O)[C@@H](NC(=O)[C@H](CC(=O)O)NC(=O)[C@H](CCC(N)=O)NC(=O)[C@H](CC(C)C)NC(=O)[C@H](CCCCN)NC(=O)[C@H](CCCCN)NC(=O)[C@H](CCCNC(=N)N)NC(=O)[C@H](CC(C)C)NC(=O)[C@H](Cc3c[nH]c4ccccc34)NC(=O)[C@H](CCC(=O)O)NC(=O)[C@@H](NC(=O)[C@H](CCCNC(=N)N)NC(=O)[C@H](CCC(=O)O)NC(=O)[C@H](CCSC)NC(=O)[C@H](CO)NC(=O)[C@H](CC(N)=O)NC(=O)[C@H](CC(C)C)NC(=O)[C@H](Cc3c[nH]cn3)NC(=O)[C@H](CCCCN)NC(=O)CNC(=O)[C@H](CC(C)C)NC(=O)[C@H](CC(N)=O)NC(=O)[C@H](Cc3c[nH]cn3)NC(=O)[C@H](CCSC)NC(=O)[C@H](CC(C)C)NC(=O)[C@H](CCC(N)=O)NC(=O)[C@@H](NC(=O)[C@H](CCC(=O)O)NC(=O)[C@H](CO)NC(=O)[C@@H](NC(=O)[C@@H](N)CO)C(C)C)[C@@H](C)CC)C(C)C)C(C)C)C(=O)O)C2=O)C/C1=C/C=C1\CCC[C@]2(C)[C@@H]([C@H](C)CCCC(C)(C)O)CC[C@@H]12 (some centres unmarked)
Tmax (male cynomolgus monkey, plasma; intravenous, 0.02 mg/kg, single dose): 11.4 min

CN1C(=O)Cc2ccccc2C1=O
inhibition (USP14; enzyme activity, inhibitor; 17 µM): 23%

C#CCOC(=O)[C@@]1(C)C=C(C(=O)OC(C)(C)C)C(=O)CC1
fraction bound (MAPK8; D-peptide binding, inhibitor, FP peptide displacement; 1.562 µM; lower is stronger displacement): 0.963

C[Si](C)(C)C[C@H](CN)CC(=O)O
inhibition (Sigma non-opioid intracellular receptor 1 (SIGMAR1, Homo sapiens, UniProt Q99720); ligand displacement, radioligand; 250 µM): -7%

CC[C@H](C)[C@H](NC(=O)[C@@H](NC(=O)[C@@H](NC(=O)[C@@H](NC(=O)[C@H](CCCNC(=N)N)NC(=O)[C@H](CCC(=O)O)NC(=O)[C@H](CCC(=O)O)NC(=O)[C@H](C)NC(=O)[C@H](CCC(=O)O)NC(=O)CNC(=O)[C@H](C)NC(=O)CN)C(C)C)C(C)C)C(C)C)C(=O)N[C@@H](CC(=O)O)C(=O)N[C@@H](CC(=O)O)C(=O)N[C@@H](CC(=O)O)C(=O)N[C@@H](CCC(=O)O)C(=O)N[C@@H](CC(=O)O)C(=O)N[C@@H](CC(=O)O)C(=O)N[C@@H](CC(=O)O)C(=O)N[C@@H](C)C(=O)N[C@@H](CCC(=O)O)C(=O)N[C@@H](CC(N)=O)C(=O)N[C@@H](CO)C(=O)N[C@@H](CO)C(=O)N[C@@H](CO)C(=O)N[C@@H](CCCNC(=N)N)C(=O)N[C@@H](Cc1ccc(O)cc1)C(=O)O
ΔH (Small ubiquitin-related modifier 1 (Homo sapiens, UniProt P63165, C52A); binding, ITC; pH 7.4, chimera with SUMO2 N-terminus): 6.72 ± 0.91 kcal/mol

C#CCOC(=O)[C@@]1(C)C=C(C(=O)Nc2cccc(C(=O)Nc3ccc(C)c(Nc4nccc(-c5cccnc5)n4)c3)c2)C(=O)CC1
remaining activity (Mitogen-activated protein kinase 9 (MAPK9, Homo sapiens, UniProt P45984); enzyme activity, inhibitor; 0.006774 µM, unit not given; baseline: vehicle): 0.969

Cc1ccc(Nc2ncnc3ccc(-c4ccc(S(=O)(=O)N5CCOCC5)cc4)cc23)cc1
EC50 (Leishmania major; intracellular amastigote growth, luciferase; RAW264.7 macrophages): 20 µM

C[n+]1ccc(/C=N/NC(=O)c2ccc3ccc(C(=O)N/N=C/c4cc[n+](C)c5ccccc45)nc3n2)c2ccccc21
ΔTm (MYC parallel G4 DNA; FRET melting; 1 µM, DNA 0.2 µM): 16.2 ± 0.2 °C

CN(CCNCc1cc(C(=O)[O-])ccc1[O-])CCNCc1cc(C(=O)[O-])ccc1[O-].[Cl-].[Fe+3].[K+].[K+]
transchelation rate constant (TF (Homo sapiens, UniProt P02787); measured: Fe; pH 7.4, 37 °C, 4-fold transferrin decrease): 0.025 min⁻¹

C=CC(=O)N1CCCC(n2c(=O)c3ncccc3n(Cc3ccc(Oc4ccccc4)cc3)c2=O)C1 (centres unmarked)
melting temperature (Protein phosphatase 1 regulatory subunit 7 (Homo sapiens, UniProt Q15435); thermal proteome profiling, measured: PPP1R7; treated): 50.4 °C and 46.6 °C

CCCCCC(O)/C=C/C=O (centres unmarked)
isoTOP-ABPP competition ratio (ZWINT; competitive isoTOP-ABPP, measured: ZWINT cysteine peptide; proteome, soluble, MDA-MB-231; 100 µM, added: iodoacetamide probe; baseline: DMSO over compound-treated, higher = stronger cysteine blockade): 1.8

N#CN1CC[C@H](C(=O)Nc2nc3c(s2)CN(C(=O)Cn2cc(COCCOCCOCCOCCNC(=O)CCCC[C@@H]4SC[C@@H]5NC(=O)N[C@@H]54)nn2)CC3)C1
iBAQ abundance (E3 ubiquitin-protein ligase HECTD1 (HECTD1, Homo sapiens, UniProt Q9ULT8); probe binding, affinity probe, neutravidin pull-down LC-MS/MS; HEK293T, cell lysate; 5 µM, 1 h, mean of three replicates, unit not given; higher = more pulled down): 319000

N#Cc1cnc2sc(C(=O)O)cc2c1N1CCc2[nH]nc(C(=O)N[C@@H](CC(=O)NCCOCCN3CCOCC3)c3cccc(Br)c3)c2C1
remaining activity (Interleukin-1 receptor-like 2 (IL1RL2, Homo sapiens, UniProt Q9HB29); reporter gene (SEAP), inhibitor, HEK-Blue IL-36R reporter; HEK-Blue IL-36R cells; 100 µM, 6 h, added: IL36G 0.01 ng/mL): 24.3%

C[n+]1cc(/C=N/NC(=O)c2ccc3ccc4ccc(C(=O)N/N=C/c5cc6ccccc6[n+](C)c5)nc4c3n2)cc2ccccc21
ΔTm (hp2 hairpin duplex DNA; FRET melting; 1 µM, added: ds26 10 µM): 0.6 ± 0.3 °C

O=C(O)Cc1cc2c(cc1C(=O)c1cccc(Cl)c1)OCO2
current amplitude (Gria2/Glutamate receptor 3; glutamate-evoked current, whole-cell patch clamp; HEK-293T; concentration not given, pH 7.4, holding potential -60 mV, added: 10 mM glutamate): 58 ± 4 pA

COc1cc(Nc2nccc(-c3cnn4nc(OC)ccc34)n2)cc(C(F)(F)F)c1
remaining binding (Phosphatidylinositol 4,5-bisphosphate 3-kinase catalytic subunit alpha isoform (PIK3CA, Homo sapiens, UniProt P42336, M1043I); binding; 1 µM): 100%

OC[C@H]1O[C@@H](Oc2cc3c(O)cc(O)cc3[o+]c2-c2cc(O)c(O)c(O)c2)[C@H](O)[C@@H](O)[C@H]1O
binding free energy ΔG (PPO3; fluorescence quenching; 298 K): -7.4641 ± 0.00478 kcal/mol

CC(=O)Nc1ccc2nc(C)sc2c1
inhibition (USP14; enzyme activity, inhibitor; 17 µM): 62%

CC[C@H](C)[C@@H](C(=O)N[C@@H](CC(C)C)C(=O)N[C@@H](CO)C(=O)N[C@@H](CO)C(=O)N[C@H](C(=O)N[C@@H](CC(N)=O)C(=O)N[C@H](C(=O)NCC(=O)N[C@@H](CO)C(=O)N[C@@H](CC(N)=O)C(=O)N[C@H](C(=O)N1CCC[C@H]1C(N)=O)[C@@H](C)O)C(C)C)[C@@H](C)O)N(C)C(=O)[C@H](C)NC(=O)CN(C)C(=O)[C@H](Cc1ccccc1)NC(=O)[C@H](CC(N)=O)NC(=O)[C@H](CC(N)=O)NC(=O)[C@H](CO)NC(=O)[C@H](CO)NC(=O)[C@H](CCCNC(=N)N)NC(=O)[C@H](Cc1c[nH]cn1)NC(=O)[C@H](CC(C)C)NC(=O)[C@H](Cc1ccccc1)NC(=O)[C@H](CCC(=O)O)NC(=O)[C@H](C)NC(=O)[C@H](CC(C)C)NC(=O)[C@H](CCCNC(=N)N)NC(=O)[C@H](CCC(N)=O)NC(=O)[C@@H](NC(=O)[C@H](C)NC(=O)[C@@H]1CSSC[C@H](NC(=O)[C@H](CCCNC(=N)N)NC(=O)CC[C@H](NC(=O)CCCCCCCCCCCCCCCCCCC(=O)O)C(=O)O)C(=O)N[C@@H](CC(N)=O)C(=O)N[C@@H]([C@@H](C)O)C(=O)N[C@@H](C)C(=O)N[C@@H]([C@@H](C)O)C(=O)N1)[C@@H](C)O
potency increase (Calcitonin receptor (CALCR, Homo sapiens, UniProt P30988); cAMP accumulation, agonist; COS-7 expressing CTR; baseline: over native Tyr37 analogue): ~7 fold

O=S1(=O)C=C(N/C=N/c2ccccc2F)c2ccccc21
inhibition (USP14; enzyme activity, inhibitor; 17 µM): 12%

CN(Cc1cc(C2CC2)on1)C(=O)c1cccc(-c2ccc3c(c2)CCO3)c1
reaction rate (Acetyl-CoA synthetase (Cryptococcus neoformans, UniProt J9VFT1); enzyme activity, inhibitor, coupled pyrophosphate; 6.25 µM; higher is more activity): 0.00166 a.u.
